{"data": "Results pooled from the literature", "note": "Numbered parts are unrelated; each lists some results of a single study.", "chain of UniProt P42685 (whole entry, looked up)": "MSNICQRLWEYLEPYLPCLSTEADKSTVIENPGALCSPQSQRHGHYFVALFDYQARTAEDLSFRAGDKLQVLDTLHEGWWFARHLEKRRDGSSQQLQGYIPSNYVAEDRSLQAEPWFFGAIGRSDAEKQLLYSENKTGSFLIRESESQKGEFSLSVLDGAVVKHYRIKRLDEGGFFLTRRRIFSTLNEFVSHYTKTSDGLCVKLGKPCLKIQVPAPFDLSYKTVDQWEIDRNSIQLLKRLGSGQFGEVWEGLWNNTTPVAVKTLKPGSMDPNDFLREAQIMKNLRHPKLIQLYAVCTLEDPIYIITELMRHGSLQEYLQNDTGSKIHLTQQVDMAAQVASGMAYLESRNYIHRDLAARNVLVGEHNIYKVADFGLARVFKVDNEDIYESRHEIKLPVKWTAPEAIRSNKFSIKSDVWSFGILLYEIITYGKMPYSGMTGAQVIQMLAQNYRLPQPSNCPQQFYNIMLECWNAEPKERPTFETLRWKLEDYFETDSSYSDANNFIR", "chain of UniProt P27361 (whole entry, looked up)": "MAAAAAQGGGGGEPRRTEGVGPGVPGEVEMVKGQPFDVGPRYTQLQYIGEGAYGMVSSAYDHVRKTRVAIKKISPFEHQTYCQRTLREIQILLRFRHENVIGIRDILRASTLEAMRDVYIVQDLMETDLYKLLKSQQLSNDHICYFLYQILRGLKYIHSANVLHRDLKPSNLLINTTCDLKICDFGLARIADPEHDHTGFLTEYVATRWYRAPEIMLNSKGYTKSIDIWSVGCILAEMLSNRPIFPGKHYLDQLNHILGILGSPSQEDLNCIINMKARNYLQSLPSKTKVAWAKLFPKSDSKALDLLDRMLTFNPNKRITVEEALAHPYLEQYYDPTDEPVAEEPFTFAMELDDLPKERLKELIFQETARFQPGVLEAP", "chain of UniProt Q15349 (whole entry, looked up)": "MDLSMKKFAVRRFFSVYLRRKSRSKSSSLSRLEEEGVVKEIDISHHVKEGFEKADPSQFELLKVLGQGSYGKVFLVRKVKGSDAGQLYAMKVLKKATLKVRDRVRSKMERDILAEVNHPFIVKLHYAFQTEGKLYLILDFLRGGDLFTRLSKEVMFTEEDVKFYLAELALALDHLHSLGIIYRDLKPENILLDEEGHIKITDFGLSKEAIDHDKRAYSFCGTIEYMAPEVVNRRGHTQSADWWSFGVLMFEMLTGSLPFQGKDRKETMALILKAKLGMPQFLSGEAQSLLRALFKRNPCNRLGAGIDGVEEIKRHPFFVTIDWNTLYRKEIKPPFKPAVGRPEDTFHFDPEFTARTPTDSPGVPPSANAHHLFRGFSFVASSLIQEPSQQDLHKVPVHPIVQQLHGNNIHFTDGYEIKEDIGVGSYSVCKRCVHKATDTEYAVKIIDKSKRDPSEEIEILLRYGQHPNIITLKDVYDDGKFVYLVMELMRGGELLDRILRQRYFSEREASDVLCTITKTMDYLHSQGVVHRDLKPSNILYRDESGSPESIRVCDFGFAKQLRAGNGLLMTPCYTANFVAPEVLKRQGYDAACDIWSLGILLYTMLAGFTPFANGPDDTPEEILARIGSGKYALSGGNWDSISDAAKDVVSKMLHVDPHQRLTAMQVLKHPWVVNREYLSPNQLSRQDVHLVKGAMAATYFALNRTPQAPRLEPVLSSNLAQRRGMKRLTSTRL", "chain of UniProt Q96PY6 (whole entry, looked up)": "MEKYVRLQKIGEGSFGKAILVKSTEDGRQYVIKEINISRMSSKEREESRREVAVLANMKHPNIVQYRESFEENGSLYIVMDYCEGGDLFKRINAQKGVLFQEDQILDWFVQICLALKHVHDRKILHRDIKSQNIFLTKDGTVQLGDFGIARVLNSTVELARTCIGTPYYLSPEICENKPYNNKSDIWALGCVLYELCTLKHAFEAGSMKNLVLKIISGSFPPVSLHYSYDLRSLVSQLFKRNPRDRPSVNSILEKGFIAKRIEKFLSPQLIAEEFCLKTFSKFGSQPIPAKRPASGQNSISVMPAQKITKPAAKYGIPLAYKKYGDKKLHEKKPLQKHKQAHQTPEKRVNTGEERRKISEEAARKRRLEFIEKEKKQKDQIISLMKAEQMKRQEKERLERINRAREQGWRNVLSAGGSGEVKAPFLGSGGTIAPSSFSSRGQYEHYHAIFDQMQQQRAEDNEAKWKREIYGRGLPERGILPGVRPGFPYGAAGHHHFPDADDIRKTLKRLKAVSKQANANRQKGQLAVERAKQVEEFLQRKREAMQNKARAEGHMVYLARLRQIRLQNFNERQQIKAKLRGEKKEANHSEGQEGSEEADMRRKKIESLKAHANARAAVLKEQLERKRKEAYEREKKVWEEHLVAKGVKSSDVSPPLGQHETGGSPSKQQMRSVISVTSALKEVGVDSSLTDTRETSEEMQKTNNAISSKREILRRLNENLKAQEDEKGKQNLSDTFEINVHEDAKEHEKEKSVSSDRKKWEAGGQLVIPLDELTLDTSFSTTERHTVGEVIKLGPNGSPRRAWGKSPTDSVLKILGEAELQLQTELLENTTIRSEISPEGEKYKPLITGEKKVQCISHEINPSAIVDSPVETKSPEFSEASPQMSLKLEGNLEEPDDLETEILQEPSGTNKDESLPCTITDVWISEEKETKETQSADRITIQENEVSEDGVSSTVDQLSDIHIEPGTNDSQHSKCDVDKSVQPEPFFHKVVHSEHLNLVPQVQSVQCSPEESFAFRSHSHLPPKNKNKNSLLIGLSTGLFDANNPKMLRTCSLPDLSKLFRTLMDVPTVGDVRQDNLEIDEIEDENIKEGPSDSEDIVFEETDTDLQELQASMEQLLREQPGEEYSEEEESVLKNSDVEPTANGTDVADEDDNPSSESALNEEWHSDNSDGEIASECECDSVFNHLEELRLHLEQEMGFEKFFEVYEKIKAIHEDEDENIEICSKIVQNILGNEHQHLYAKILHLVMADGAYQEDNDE", "chain of UniProt Q15831 (whole entry, looked up)": "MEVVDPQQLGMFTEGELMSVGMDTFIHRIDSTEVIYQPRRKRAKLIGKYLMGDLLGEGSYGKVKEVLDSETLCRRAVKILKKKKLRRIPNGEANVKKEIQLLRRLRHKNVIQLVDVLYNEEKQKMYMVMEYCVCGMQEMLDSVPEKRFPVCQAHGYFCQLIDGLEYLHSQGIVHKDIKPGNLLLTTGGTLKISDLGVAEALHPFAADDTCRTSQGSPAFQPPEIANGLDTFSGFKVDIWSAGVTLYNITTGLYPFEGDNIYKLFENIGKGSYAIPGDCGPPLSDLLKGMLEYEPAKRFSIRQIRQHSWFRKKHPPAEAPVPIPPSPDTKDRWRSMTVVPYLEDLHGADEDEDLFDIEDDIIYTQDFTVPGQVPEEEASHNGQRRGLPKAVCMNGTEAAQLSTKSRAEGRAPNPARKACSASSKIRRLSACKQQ", "chain of UniProt Q9HC98 (whole entry, looked up)": "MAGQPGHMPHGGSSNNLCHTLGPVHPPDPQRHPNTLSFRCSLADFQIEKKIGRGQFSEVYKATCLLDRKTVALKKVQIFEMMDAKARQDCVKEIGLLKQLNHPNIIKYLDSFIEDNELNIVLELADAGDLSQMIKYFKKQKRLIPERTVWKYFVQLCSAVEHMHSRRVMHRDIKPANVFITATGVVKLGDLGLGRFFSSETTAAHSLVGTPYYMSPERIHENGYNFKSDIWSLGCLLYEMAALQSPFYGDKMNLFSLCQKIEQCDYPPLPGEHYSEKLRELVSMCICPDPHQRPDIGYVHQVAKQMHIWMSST"}
{"data": "Set 1", "SMILES": "CCOCCn1cc(C(=O)Nc2ccc(-n3nc(-c4cccnc4)cc3C(F)(F)F)cn2)ccc1=O", "observed": "cell-free assay", "method": "competition with immobilised ligand", "tested at": "1 µM"}
{"target": "Mitogen-activated protein kinase kinase kinase 15 (MAP3K15, Homo sapiens, UniProt Q6ZN16)", "remaining binding [%]": 100}
{"target": "Receptor-type tyrosine-protein kinase FLT3, autoinhibited (FLT3, Homo sapiens, UniProt P36888)", "remaining binding [%]": 87}
{"target": "Serine/threonine-protein kinase STK11 (STK11, Homo sapiens, UniProt Q15831)", "remaining binding [%]": 89}
{"data": "Set 2", "target": "Sal-like protein 4, full length isoform B (SALL4, Homo sapiens, UniProt Q9UJQ4-2, residues 1-616)", "method": "universal PBM", "molecule type": "double-stranded DNA, one strand shown", "matrix": "in vitro", "tested at": "not given", "notes": "8-mer, flanks averaged, mean of replicates", "reading": "higher = stronger binding", "Residues (chain)": "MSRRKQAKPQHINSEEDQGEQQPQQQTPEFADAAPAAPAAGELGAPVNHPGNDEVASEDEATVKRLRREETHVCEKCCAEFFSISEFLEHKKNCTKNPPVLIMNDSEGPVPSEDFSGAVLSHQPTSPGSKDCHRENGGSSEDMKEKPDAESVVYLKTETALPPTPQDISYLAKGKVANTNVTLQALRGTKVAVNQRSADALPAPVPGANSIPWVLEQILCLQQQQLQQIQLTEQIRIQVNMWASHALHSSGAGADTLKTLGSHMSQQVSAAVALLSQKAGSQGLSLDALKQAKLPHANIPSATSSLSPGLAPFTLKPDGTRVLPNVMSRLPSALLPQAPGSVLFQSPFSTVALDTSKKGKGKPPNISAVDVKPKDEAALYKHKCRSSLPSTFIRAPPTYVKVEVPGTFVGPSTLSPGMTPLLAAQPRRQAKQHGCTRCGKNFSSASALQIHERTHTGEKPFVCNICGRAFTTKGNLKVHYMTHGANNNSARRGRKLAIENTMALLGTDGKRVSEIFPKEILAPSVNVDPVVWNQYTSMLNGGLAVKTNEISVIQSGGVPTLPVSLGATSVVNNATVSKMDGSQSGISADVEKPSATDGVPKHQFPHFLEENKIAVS"}
{"Oligonucleotide": "GTACACCA", "E-score": -0.0429}
{"Oligonucleotide": "TATGAGCA", "E-score": 0.201}
{"Oligonucleotide": "AGGGTCCC", "E-score": -0.29}
{"Oligonucleotide": "CGTACCCC", "E-score": -0.221}
{"Oligonucleotide": "AGTCAGGC", "E-score": -0.0986}
{"Oligonucleotide": "GATATAAA", "E-score": 0.292}
{"Oligonucleotide": "GTCGACGA", "E-score": -0.163}
{"Oligonucleotide": "CCCCGGCC", "E-score": -0.317}
{"data": "Set 3", "target": "RING finger protein unkempt homolog, zinc fingers 1-6, GST-SBP tag (UNK, Homo sapiens, UniProt Q9C0B0, residues 30-357)", "method": "RNA Bind-n-Seq", "molecule type": "RNA", "matrix": "in vitro", "tested at": "not given", "notes": "RNA with constant flanks, human-mouse chimeric sites, ends assumed", "reference": "input RNA pool", "reading": "higher = stronger binding", "chain of UniProt Q9C0B0 (30-357, looked up)": "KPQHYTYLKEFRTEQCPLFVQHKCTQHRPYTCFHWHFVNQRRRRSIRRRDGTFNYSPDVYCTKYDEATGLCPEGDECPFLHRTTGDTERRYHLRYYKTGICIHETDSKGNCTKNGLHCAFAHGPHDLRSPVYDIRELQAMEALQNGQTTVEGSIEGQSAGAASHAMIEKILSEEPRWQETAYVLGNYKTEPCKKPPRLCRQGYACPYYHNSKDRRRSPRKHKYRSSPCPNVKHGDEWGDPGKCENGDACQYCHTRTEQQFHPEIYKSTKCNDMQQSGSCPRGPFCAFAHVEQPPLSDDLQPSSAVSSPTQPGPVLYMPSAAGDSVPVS"}
{"Oligonucleotide": "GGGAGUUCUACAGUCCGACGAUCAAAGAGUGGAUAGAGUGUGCACACGGGAUCGGUUAUACCCGGGCGAAAAAGGAGUGCAAGAUAGAAUUCGAUGACUUCGAAGAGUGCUUGCUUCGGUACAAAACGAUGAGGCGAAUGCAUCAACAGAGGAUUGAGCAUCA", "bound/input enrichment [ratio]": 0.408}
{"Oligonucleotide": "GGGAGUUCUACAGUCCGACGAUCGGUGGGGUGGUCAUUGCCGUUUGAGCUGCUGAUUUUCAUGAGUCGCCCAUUCAGAACUCGUGUAGGGUUGACAAUGUGGGGGGGUGGGGGAUCCAGCUUAUUCUUUUUCCCCAGCCCCCACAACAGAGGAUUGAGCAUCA", "bound/input enrichment [ratio]": 0.354}
{"Oligonucleotide": "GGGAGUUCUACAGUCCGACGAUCCAGCCUCAGAGCCCAGACUUCCUGGAUAUUACCAACCCUAAAGCGGUAUUAGAAAAUGCAUUGAGAAACUUCGCCUGUCUGACGACUGGGGAUGUGAUUGCUAUCAACUACAAUGAGAAGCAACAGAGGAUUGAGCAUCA", "bound/input enrichment [ratio]": 0.427}
{"Oligonucleotide": "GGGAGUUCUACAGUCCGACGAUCAGAAUCUUGGGACUGUUUUACUUAAUUGGUCAUUGGUAGCUUAACAAACAUGGAGAUAAGAUUAGAAAUCUUGACAUCAACAAGUAUUAAGCAGAAAAAACCAUGGCCACGUGUCUCCUGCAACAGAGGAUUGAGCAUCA", "bound/input enrichment [ratio]": 0.119}
{"Oligonucleotide": "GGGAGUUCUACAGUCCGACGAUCAUCCAGUACUCGAAUCACAAAGAACUAAAGACAGAUAAUACAUUAAACCAACGUGCUCAGGCAGUUCUUCAAGCUGUGACAGCUGUCCAGACAGCAAAUACACCUCUUAGUGGCACCACACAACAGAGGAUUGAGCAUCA", "bound/input enrichment [ratio]": 0.369}
{"Oligonucleotide": "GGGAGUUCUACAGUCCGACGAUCCCCCAAUACCAUUUGCAAGAGUUGGAAUGCACUCUCUUUUUUAAAAAACAUGUAUACAUUUUAGGGCUGUAGAUUUAUUUUCCUGGUUUUGUUUUUCAUUGCUGACUUUUGAGCACAGAACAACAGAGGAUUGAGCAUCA", "bound/input enrichment [ratio]": 1.42}
{"Oligonucleotide": "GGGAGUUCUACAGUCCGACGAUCUGGGCACUCUAUCAGAUAUAUUAAUUUUUUAAUGUAGAUGUAAUUUUAAAAAUGAAUGGCUACUUUACACGUUUAACUAGGGUUUUACUACAUAUGUGUACAUAUGUAUAUAUAUAUAUACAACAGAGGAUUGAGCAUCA", "bound/input enrichment [ratio]": 17.3}
{"Oligonucleotide": "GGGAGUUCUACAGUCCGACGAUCCAGCCUCAGAGCCCAGACUUCCUGGAUAUUACCAACCCUAAAGCGGUAUUAGAAAACGCAUUGAGAAACUUUGCCUGUCUGACGACUGGAGAUGUGAUUGCUAUCAACUACAAUGAGAAGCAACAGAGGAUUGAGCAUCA", "bound/input enrichment [ratio]": 0.419}
{"data": "Set 4", "Compound": "Nc1cccc(-c2cc3c(Oc4cccc(O)c4)ncnc3[nH]2)c1", "observed": "enzyme activity", "action": "inhibitor", "tested at": "0.5 µM", "reference": "control"}
{"target": "Serine/threonine-protein kinase Nek1 (NEK1, Homo sapiens, UniProt Q96PY6)", "remaining activity [%]": 92.3}
{"target": "Tyrosine-protein kinase Lck (LCK, Homo sapiens, UniProt P06239)", "remaining activity [%]": 24.2}
{"target": "Mitogen-activated protein kinase 3 (MAPK3, Homo sapiens, UniProt P27361)", "remaining activity [%]": 86.9}
{"target": "Serine/threonine-protein kinase TBK1 (TBK1, Homo sapiens, UniProt Q9UHD2)", "remaining activity [%]": 92.9}
{"target": "Tyrosine-protein kinase JAK3 (JAK3, Homo sapiens, UniProt P52333)", "remaining activity [%]": 123}
{"target": "Ribosomal protein S6 kinase alpha-2 (RPS6KA2, Homo sapiens, UniProt Q15349)", "remaining activity [%]": 91.5}
{"target": "Dual specificity mitogen-activated protein kinase kinase 2 (MAP2K2, Homo sapiens, UniProt P36507)", "remaining activity [%]": 104}
{"target": "Casein kinase I isoform gamma-3 (CSNK1G3, Homo sapiens, UniProt Q9Y6M4)", "remaining activity [%]": 92.6}
{"target": "Tyrosine-protein kinase FRK (FRK, Homo sapiens, UniProt P42685)", "remaining activity [%]": 6.95}
{"target": "Serine/threonine-protein kinase Nek6 (NEK6, Homo sapiens, UniProt Q9HC98)", "remaining activity [%]": 90.2}
{"target": "Fibroblast growth factor receptor 3 (FGFR3, Homo sapiens, UniProt P22607)", "remaining activity [%]": 67.9}
{"target": "Angiopoietin-1 receptor (TEK, Homo sapiens, UniProt Q02763)", "remaining activity [%]": 60.7}
{"target": "Serine/threonine-protein kinase ULK2 (ULK2, Homo sapiens, UniProt Q8IYT8)", "remaining activity [%]": 97.5}
